Experimental data collected from several papers.
Protocols differ between the studies behind these lines. Numbers after ± are the reported error.
UCHL1: Ubiquitin carboxyl-terminal hydrolase isozyme L1 (UCHL1, Homo sapiens, UniProt P09936)
Chain of UniProt P09936 (whole entry, looked up): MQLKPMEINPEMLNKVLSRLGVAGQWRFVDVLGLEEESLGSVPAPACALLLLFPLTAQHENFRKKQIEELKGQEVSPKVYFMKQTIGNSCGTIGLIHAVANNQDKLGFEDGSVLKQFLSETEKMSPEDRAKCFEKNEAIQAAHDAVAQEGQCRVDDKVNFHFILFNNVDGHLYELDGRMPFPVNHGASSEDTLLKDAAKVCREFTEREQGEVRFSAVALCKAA

| SMILES | target or system | assay | test system | setting | quantity | value |
| --- | --- | --- | --- | --- | --- | --- |
| COC(=O)c1cccc(-c2cccc(Nc3nccc(NC4CCCCC4)n3)c2)c1 |  |  | MDCKII-WT cells | 10 µM, pH 7.4 | Papp (A to B) | 0.017 ± 0.005 ×10⁻⁶ cm/s |
| C[C@@H]1O[C@@H](O[C@H]2[C@H](Oc3cc(O)c4c(c3)O[C@H](c3ccc(O)cc3)CC4=O)O[C@H](CO)[C@@H](O)[C@@H]2O)[C@H](O)[C@H](O)[C@H]1O |  |  | PBS receiver | 50 mg/mL, 15 min, pH 6.8 | Papp | 0.082 ± 0.9 ×10⁻⁶ cm/s |
| COc1cc2[nH]c(C)c(-c3ccc(COc4ccccc4)cc3)c(=O)c2cc1Cl |  |  | PAMPA | pH 7.4 | Papp | < 5 ×10⁻⁶ cm/s |
| COc1ccccc1OCCNCC(O)COc1cccc2[nH]c3ccccc3c12 (stereo not shown) |  |  | EpiIntestinal microtissues | 5 µM, 2 h, pH 6.5, basolateral pH 7.4 | Papp apical to basolateral | 2.8 ×10⁻⁶ cm/s |
| COC(=O)C(Cc1cccc(C)c1I)NC(=O)CNCc1ccccc1 (stereo not shown) |  |  | bEnd.3 Transwell BBB model | 10 µg/mL, 120 min, 37 °C | Papp A to B | 359 ± 43.8 ×10⁻⁶ cm/s |
| C[C@H]1O[C@@H](O[C@H]2[C@@H](O)C[C@H](O[C@H]3[C@@H](O)C[C@H](O[C@H]4CC[C@@]5(C)[C@H](CC[C@@H]6[C@@H]5C[C@@H](O)[C@]5(C)[C@@H](C7=CC(=O)OC7)CC[C@]65O)C4)O[C@@H]3C)O[C@@H]2C)C[C@H](O)[C@@H]1O |  |  | EpiIntestinal microtissues | 5 µM, 2 h, pH 6.5, basolateral pH 7.4 | Papp apical to basolateral | 2.2 ×10⁻⁶ cm/s |
| CC(C)Nc1ccnc(Nc2cccc(-c3ccccc3)c2)n1 |  |  | MDCKII-WT cells | 10 µM, pH 7.4 | Papp (B to A) | 1.48 ± 0.281 ×10⁻⁶ cm/s |
| CCc1ccccc1-c1c(C)[nH]c2cc(OC)c(Cl)cc2c1=O |  |  | PAMPA | pH 7.4 | Papp | 443 ×10⁻⁶ cm/s |
| COc1ccc(CCNc2oc(COc3ccc(C)cc3)nc2C#N)cc1 | UCHL1 | covalent, intact protein LC-MS |  | 12.5 µM | labelling | 8.49% |
| COc1cc2[nH]c(C)c(-c3cccc(CO)c3)c(=O)c2cc1Cl |  |  | PAMPA | pH 7.4 | Papp | 9 ×10⁻⁶ cm/s |
| N#CC(=Cc1cc(F)ccc1F)C(=O)NC1CCCC1 | UCHL1 | covalent, intact protein LC-MS |  | 12.5 µM | labelling | 15.7% |
| COc1cc2[nH]c(C)c(-c3ccc(C=O)cc3)c(=O)c2cc1Cl |  |  | PAMPA | pH 7.4 | Papp | 107 ×10⁻⁶ cm/s |
| CCOC(=O)[C@H](CCSC)NC(=O)c1ccc(C2CC2)c(Cc2ccc(F)cc2)n1 |  |  | PAMPA |  | Papp | 1.12 ×10⁻⁶ cm/s |
| CCCCCCOC(=O)NC(=N)c1ccc(NCc2nc3cc(C(=O)N(CCC(=O)OCC)c4ccccn4)ccc3n2C)cc1 |  |  | human EpiIntestinal microtissues | 5 µM, 2 h | Papp (B to A) | 0.14 ×10⁻⁶ cm/s |
| c1ccc(-c2cccc(Nc3nccc(NC4CCCCC4)n3)c2)nc1 |  |  | MDCKII-WT cells | 10 µM, pH 7.4 | Papp (A to B) | 17.3 ± 6.58 ×10⁻⁶ cm/s |
| N=C(N)NCCCNC(=O)[C@@H]1CCCCN1C(=O)[C@@H](CC1CCCCC1)NCC(=O)O |  |  | EpiIntestinal microtissues | 5 µM, 2 h, pH 6.5, basolateral pH 7.4 | Papp apical to basolateral | 0.81 ×10⁻⁶ cm/s |
| COc1cc2[nH]c(C)c(-c3c(F)cccc3F)c(=O)c2cc1Cl |  |  | PAMPA | pH 7.4 | Papp | 151 ×10⁻⁶ cm/s |
| CC(C)Nc1ccnc(Nc2cccc(C(C)(C)C)c2)n1 |  |  | MDCKII-WT cells | 10 µM, pH 7.4 | Papp (A to B) | 1.59 ± 0.66 ×10⁻⁶ cm/s |
| CC(C)c1nc(N(C)S(C)(=O)=O)nc(-c2ccc(F)cc2)c1/C=C/[C@@H](O)C[C@@H](O)CC(=O)O |  |  | EpiIntestinal microtissues | 5 µM, 2 h, pH 6.5, basolateral pH 7.4 | Papp apical to basolateral | 2.1 ×10⁻⁶ cm/s |
| CC(C)Nc1ccnc(Nc2cccc(-c3ccncc3)c2)n1 |  |  | MDCKII-WT cells | 10 µM, pH 7.4 | Papp (A to B) | 68.6 ± 32.2 ×10⁻⁶ cm/s |
| COc1cc2[nH]c(C)c(-c3ccc(C)cc3)c(=O)c2cc1Cl |  |  | PAMPA | pH 7.4 | Papp | < 5 ×10⁻⁶ cm/s |
| CN/C(=N/CCSCc1nc[nH]c1C)NC#N |  |  | human EpiIntestinal microtissues | 5 µM, 2 h | Papp (A to B) | 3.6 ×10⁻⁶ cm/s |
| c1cncc(-c2cccc(Nc3nccc(NC4CCCCC4)n3)c2)c1 |  |  | MDCKII-WT cells | 10 µM, pH 7.4 | Papp (B to A) | 7.55 ± 2.77 ×10⁻⁶ cm/s |
| C[C@H]1[C@H](NC(=O)/C(=N\OC(C)(C)C(=O)O)c2csc(N)n2)C(=O)N1S(=O)(=O)O |  |  | EpiIntestinal microtissues | 5 µM, 2 h, pH 6.5, basolateral pH 7.4 | Papp apical to basolateral | 0.45 ×10⁻⁶ cm/s |
| c1ccc(-c2cccc(Nc3nccc(NC4CCCCC4)n3)c2)cc1 |  |  | MDCKII-WT cells | 10 µM, pH 7.4 | Papp (A to B) | 0.005 ± 0.004 ×10⁻⁶ cm/s |
| COc1cc2[nH]c(C)c(-c3cccc4c3oc3ccccc34)c(=O)c2cc1Cl |  |  | PAMPA | pH 7.4 | Papp | 46 ×10⁻⁶ cm/s |
| CC(C)Nc1ccnc(Nc2cccc(-c3ccccn3)c2)n1 |  |  | MDCKII-WT cells | 10 µM, pH 7.4 | Papp (B to A) | 1.16 ± 0.878 ×10⁻⁶ cm/s |
| COc1cc2[nH]c(C)c(-c3ccncc3)c(=O)c2cc1Cl |  |  | PAMPA | pH 7.4 | Papp | < 5 ×10⁻⁶ cm/s |

Some of these lines once more:
| SMILES | target or system | assay | test system | setting | quantity | value |
| --- | --- | --- | --- | --- | --- | --- |
| COc1cc2[nH]c(C)c(-c3c(F)cccc3F)c(=O)c2cc1Cl |  |  | PAMPA | pH 7.4 | Papp | 151 ×10⁻⁶ cm/s |
| CC(C)Nc1ccnc(Nc2cccc(C(C)(C)C)c2)n1 |  |  | MDCKII-WT cells | 10 µM, pH 7.4 | Papp (A to B) | 1.59 ± 0.66 ×10⁻⁶ cm/s |
